Results pooled from the literature.
Protocols differ between the studies behind these lines. Several values in a cell are separate wells, animals, samples, runs or records. ± gives the spread as reported.
ABCG2: Broad substrate specificity ATP-binding cassette transporter ABCG2 (ABCG2, Homo sapiens, UniProt Q9UNQ0)
Sequence of UniProt Q9UNQ0 (whole entry, looked up): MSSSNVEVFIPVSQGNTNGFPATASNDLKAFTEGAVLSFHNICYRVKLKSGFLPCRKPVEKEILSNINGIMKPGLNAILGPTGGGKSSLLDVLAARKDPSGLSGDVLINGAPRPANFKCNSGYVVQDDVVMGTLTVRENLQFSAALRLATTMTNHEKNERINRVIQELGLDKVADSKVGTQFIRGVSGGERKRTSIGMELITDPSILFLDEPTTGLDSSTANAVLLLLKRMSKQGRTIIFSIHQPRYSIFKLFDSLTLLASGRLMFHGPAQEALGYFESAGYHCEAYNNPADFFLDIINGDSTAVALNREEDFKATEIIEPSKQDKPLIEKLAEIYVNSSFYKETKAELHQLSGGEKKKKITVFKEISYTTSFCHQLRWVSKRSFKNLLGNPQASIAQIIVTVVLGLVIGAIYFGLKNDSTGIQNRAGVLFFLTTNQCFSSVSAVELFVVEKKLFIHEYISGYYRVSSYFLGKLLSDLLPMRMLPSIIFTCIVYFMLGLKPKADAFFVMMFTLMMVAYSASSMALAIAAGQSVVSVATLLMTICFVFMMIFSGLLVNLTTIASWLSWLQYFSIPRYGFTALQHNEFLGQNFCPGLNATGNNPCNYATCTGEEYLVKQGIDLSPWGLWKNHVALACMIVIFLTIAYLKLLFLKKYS
Sequence of UniProt Q9NPD5 (whole entry, looked up): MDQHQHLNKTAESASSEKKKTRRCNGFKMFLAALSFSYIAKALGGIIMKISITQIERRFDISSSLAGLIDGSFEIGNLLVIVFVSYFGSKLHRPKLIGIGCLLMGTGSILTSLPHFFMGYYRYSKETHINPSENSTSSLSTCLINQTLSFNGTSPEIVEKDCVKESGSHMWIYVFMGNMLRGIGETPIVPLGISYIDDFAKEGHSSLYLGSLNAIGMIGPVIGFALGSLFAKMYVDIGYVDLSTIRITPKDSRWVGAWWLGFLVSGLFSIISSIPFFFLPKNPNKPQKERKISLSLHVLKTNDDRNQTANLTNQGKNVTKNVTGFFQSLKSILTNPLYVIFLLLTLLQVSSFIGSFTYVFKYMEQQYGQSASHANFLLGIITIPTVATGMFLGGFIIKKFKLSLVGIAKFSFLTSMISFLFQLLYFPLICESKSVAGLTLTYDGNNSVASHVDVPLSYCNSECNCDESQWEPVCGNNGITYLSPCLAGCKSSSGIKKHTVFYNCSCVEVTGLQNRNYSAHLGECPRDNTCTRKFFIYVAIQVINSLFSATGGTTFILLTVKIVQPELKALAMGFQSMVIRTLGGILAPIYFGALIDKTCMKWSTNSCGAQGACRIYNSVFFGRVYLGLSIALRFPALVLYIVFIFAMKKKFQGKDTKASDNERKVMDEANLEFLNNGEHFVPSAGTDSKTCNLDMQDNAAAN
Sequence of UniProt P00760 (whole entry, looked up): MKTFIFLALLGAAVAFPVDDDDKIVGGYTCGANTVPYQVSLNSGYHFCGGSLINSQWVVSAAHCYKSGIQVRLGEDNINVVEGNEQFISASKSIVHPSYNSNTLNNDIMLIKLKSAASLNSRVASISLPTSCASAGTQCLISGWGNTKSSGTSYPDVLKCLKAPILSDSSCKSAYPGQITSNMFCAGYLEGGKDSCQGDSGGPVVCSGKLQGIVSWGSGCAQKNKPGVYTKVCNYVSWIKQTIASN

`O=C(c1ccoc1)N1CCN(c2cc(-c3cccnc3)nc3cc(-c4cccc(Cl)c4)nn23)CC1` has an IC50 of 270 ± 120 nM (ABCG2; JC-1 dye efflux, inhibitor, flow cytometry; ABCG2-overexpressing cells; added: JC-1 1 µM).
With `Cn1c(-c2ccc(C(N)=O)cc2F)nnc1C(C)(C)Oc1c(F)cc(Cl)cc1F` the Cmax median was 236 ng/mL (young non-Japanese adults, plasma; oral, 20 mg single dose, day 1, high-dose multiple-dose study).
`CCCCCCCCCCN(C)C` — result for “intrinsic clearance in vitro”: 2.18 mL/h/mg S9 protein (Oncorhynchus mykiss; liver S9 substrate depletion; rainbow trout liver S9; tested individually).
`Oc1ccc(/C=C/c2cc(O)cc(O)c2)cc1`: “twin spots per fly” 0.01 Spots per Fly and 0.02 Spots per Fly (Drosophila melanogaster; wing spot test; high bioactivation cross, wings; oral, concentration not given).
`O=C(Cc1ccccc1)N1CCN(c2cc(-c3ccccc3)nc3cc(-c4cccc(Cl)c4)nn23)CC1` gave an IC50 of 5760 ± 3400 nM (ABCG2; JC-1 dye efflux, inhibitor, flow cytometry; ABCG2-overexpressing cells; added: JC-1 1 µM).
`CC[C@H](C)[C@H](NC(=O)[C@H](CCC(=O)O)NC(=O)[C@H](CO)NC(=O)[C@@H](NC(=O)[C@@H](N)CO)C(C)C)C(=O)N[C@@H](CCC(N)=O)C(=O)N[C@@H](CC(C)C)C(=O)N[C@@H](CCSC)C(=O)N[C@@H](Cc1cnc[nH]1)C(=O)N[C@@H](CC(N)=O)C(=O)N[C@@H](CC(C)C)C(=O)NCC(=O)N[C@@H](CCCCN)C(=O)N[C@@H](Cc1cnc[nH]1)C(=O)N[C@@H](CC(C)C)C(=O)N[C@@H](CC(N)=O)C(=O)N[C@@H](CO)C(=O)N[C@@H](CCSC)C(=O)N[C@@H](CCC(=O)O)C(=O)N[C@@H](CCCN=C(N)N)C(=O)N[C@H](C(=O)N[C@@H](CCC(=O)O)C(=O)N[C@@H](Cc1c[nH]c2ccccc12)C(=O)N[C@@H](CC(C)C)C(=O)N[C@@H](CCCN=C(N)N)C(=O)N[C@@H](CCCCN)C(=O)N[C@@H](CCCCN)C(=O)N[C@@H](CC(C)C)C(=O)N[C@@H](CCC(N)=O)C(=O)N[C@@H](CC(=O)O)C(=O)N[C@H](C(=O)N[C@@H](Cc1cnc[nH]1)C(=O)N[C@@H](CC(N)=O)C(=O)N[C@@H](Cc1ccccc1)C(=O)O)C(C)C)C(C)C`: “remaining intact compound” 0% (Serine protease 1 (PRSS1, Bos taurus, UniProt P00760); substrate, HPLC-UV; Tris buffer; 30 min, pH 6.5, 37 °C, added: bovine trypsin 0.5 mg, no SBTI).
`CCCCCCCCCCCC(=O)OCCN`: “intrinsic clearance in vitro” 2.35 mL/h/mg S9 protein (Oncorhynchus mykiss; liver S9 substrate depletion; pooled rainbow trout liver S9; pH 7.8, tested individually).
The IC50 of `O=C(c1cccc(Cl)c1)N1CCN(c2cc(-c3ccccc3)nc3cc(-c4cccc(Cl)c4)nn23)CC1` is reported as 2950 ± 570 nM (ABCG2; JC-1 dye efflux, inhibitor, flow cytometry; ABCG2-overexpressing cells; added: JC-1 1 µM).
Under “intrinsic clearance in vivo”, `CCCCCCCCCCCCCCN(C)C` is recorded as 188 mL/h/g liver (Oncorhynchus mykiss; liver S9 substrate depletion; rainbow trout liver S9; tested individually).
The EC50 of `C=C(C[C@H](N)C(=O)O)C(=O)NCc1ccc([N+](=O)[O-])cc1` is reported as > 316000 nM (MCF-10A; necrosis; 24 h).
The IC50 of `CCCN(CCc1ccccc1)C(=O)[C@@H]1OC(C(=O)O)=C[C@H](O)[C@H]1NC(C)=O` is reported as 1370 ± 530 nM (ABCG2; JC-1 dye efflux, inhibitor, flow cytometry; ABCG2-overexpressing cells; added: JC-1 1 µM).
With `C=CC(=O)N1CCC([C@@H]2CCNc3c(C(N)=O)c(-c4ccc(Oc5ccccc5)cc4)nn32)CC1` the remaining activity was 91.6 ± 12% (SLCO1B3 (Homo sapiens, UniProt Q9NPD5); transport, refers to: estradiol-17β-glucuronide uptake; HEK293 transfected; 0.05 µM; relative to: vehicle).
`CCCCCCCCCCCCNC` — result for “intrinsic clearance in vitro”: 0.555 mL/h/mg S9 protein (Oncorhynchus mykiss; liver S9 substrate depletion; rainbow trout liver S9; tested individually).
With `CNCc1ccc(-c2[nH]c3cc(F)cc4c3c2CCNC4=O)cc1` the Cmax was 1030 ng/mL (human patients, plasma; oral, 600 mg twice daily, day 1, arithmetic mean).

Repeated from above:
`CC[C@H](C)[C@H](NC(=O)[C@H](CCC(=O)O)NC(=O)[C@H](CO)NC(=O)[C@@H](NC(=O)[C@@H](N)CO)C(C)C)C(=O)N[C@@H](CCC(N)=O)C(=O)N[C@@H](CC(C)C)C(=O)N[C@@H](CCSC)C(=O)N[C@@H](Cc1cnc[nH]1)C(=O)N[C@@H](CC(N)=O)C(=O)N[C@@H](CC(C)C)C(=O)NCC(=O)N[C@@H](CCCCN)C(=O)N[C@@H](Cc1cnc[nH]1)C(=O)N[C@@H](CC(C)C)C(=O)N[C@@H](CC(N)=O)C(=O)N[C@@H](CO)C(=O)N[C@@H](CCSC)C(=O)N[C@@H](CCC(=O)O)C(=O)N[C@@H](CCCN=C(N)N)C(=O)N[C@H](C(=O)N[C@@H](CCC(=O)O)C(=O)N[C@@H](Cc1c[nH]c2ccccc12)C(=O)N[C@@H](CC(C)C)C(=O)N[C@@H](CCCN=C(N)N)C(=O)N[C@@H](CCCCN)C(=O)N[C@@H](CCCCN)C(=O)N[C@@H](CC(C)C)C(=O)N[C@@H](CCC(N)=O)C(=O)N[C@@H](CC(=O)O)C(=O)N[C@H](C(=O)N[C@@H](Cc1cnc[nH]1)C(=O)N[C@@H](CC(N)=O)C(=O)N[C@@H](Cc1ccccc1)C(=O)O)C(C)C)C(C)C`: “remaining intact compound” 0% (Serine protease 1 (PRSS1, Bos taurus, UniProt P00760); substrate, HPLC-UV; Tris buffer; 30 min, pH 6.5, 37 °C, added: bovine trypsin 0.5 mg, no SBTI).
`CCCCCCCCCCCC(=O)OCCN`: “intrinsic clearance in vitro” 2.35 mL/h/mg S9 protein (Oncorhynchus mykiss; liver S9 substrate depletion; pooled rainbow trout liver S9; pH 7.8, tested individually).
